# Results collected from several papers.
# Protocols differ between the studies behind these lines. ± marks the error that the study gave.
Structure (SMILES),test,system,setting,tissue uptake
O=C([O-])CN1CCN(CC(=O)[O-])CCN(CC(=O)NC[C@H]2CC[C@H](C(=O)N[C@H](Cc3cnc4ccccc4c3)C(=O)NCCCC[C@H](NC(=O)N[C@@H](CCC(=O)O)C(=O)O)C(=O)O)CC2)CCN(CC(=O)[O-])CC1.[64Cu+2],ex vivo gamma counting,"22Rv1 tumour-bearing mice, kidney","intravenous, 0.74 MBq, 1 h post-injection",147 %ID/g
N#C[C@@H]1CCCN1C(=O)CNC(=O)c1ccnc2ccc(OCCCN3CCN(C(=O)CCc4ccc(O)c(CN5CCN6CC(=O)[O][Al-]([18F])([O]C(=O)C5)[O]c5ccc(CCC(=O)N7CCN(CCCOc8ccc9nccc(C(=O)NCC(=O)N%10CCC[C@H]%10C#N)c9c8)CC7)cc5C6)c4)CC3)cc12 (some centres unmarked),,"BALB/c nude mice, U-87 MG xenograft, pancreas","1 h, blocking, with: DOTA-FAPI-04 40 nmol/mouse co-injected",2.14 ± 1.44 %ID/g
CCCC[C@H](NC(=O)CNC(=O)CNC(=O)[C@H](CCCCNC(=O)[C@H](CC(=O)O)NC(=O)C(C)c1ccc(CC(C)C)cc1)NC(=O)CN1CCN(CC(=O)O)CCN(CC(=O)O)CCN(CC(=O)O)CC1)C(=O)N[C@H]1CC(=O)NCCCC[C@@H](C(N)=O)NC(=O)[C@H](Cc2c[nH]c3ccccc23)NC(=O)[C@H](CCCNC(=N)N)NC(=O)[C@@H](Cc2ccccc2)NC(=O)[C@H](Cc2c[nH]cn2)NC1=O (some centres unmarked) [lutetium-177 labelled],,"C57 mice, tumour-bearing, stomach","intravenous, 0.037 MBq, 4 h",1.12 ± 0.59 %ID/g
COc1ccc(Nc2nc(Nc3ccc(OCCOCC[18F])cc3)ncc2Br)cc1,,"ICR mice, S180 tumour, intestine","intravenous, 370 kBq, 5 min",1.2 ± 0.07 %ID
O=C(NCC1OC2CCC=CCCC2O1)c1ccc(COCCOCCOCC[18F])cc1 (centres unmarked),,"healthy female BALB/c nude mice, liver","intravenous, 7.4 MBq per mouse, 120 min",2.6 ± 0.1 %ID/g
N#C[C@@H]1CCCN1C(=O)CNC(=O)c1ccnc2ccc(OCCCN3CCN(C(=O)CCc4ccc5c(c4)CN4CCN(Cc6cc(CCC(=O)O)ccc6O)CC(=O)[O][Al-]([18F])([O]C(=O)C4)[O]5)CC3)cc12 (some centres unmarked),,"BALB/c nude mice, U-87 MG xenograft, brain",2 h,0.07 ± 0.02 %ID/g
O=C(O)CCCOc1ccc([18F])cc1-c1cc(-c2ccccc2C(F)(F)F)n(-c2ccccc2)n1,,"mice, small intestine","intravenous, 180 min",3.34 ± 0.46 %ID/g
CCCC[C@H](NC(=O)CCCCCCCNC(=O)CN1CCN(CC(=O)O)CCN(CC(=O)O)CC1)C(=O)N[C@H]1CC(=O)NCCCC[C@@H](C(N)=O)NC(=O)[C@H](Cc2c[nH]c3ccccc23)NC(=O)[C@H](CCCNC(=N)N)NC(=O)[C@@H](Cc2ccccc2)NC(=O)[C@H](Cc2c[nH]cn2)NC1=O [fluorine-18 labelled],,"C57 mice B16-F10 melanoma, muscle","intravenous, 0.37 MBq, 1 h",0.01 ± 0.01 %ID/g
Cc1cc(C)n(CCN(CCN)CCCCCCNC(=O)[C@@H](N)Cc2c[nH]cn2)n1.[99Tc+].[C-]#[O+].[C-]#[O+].[C-]#[O+],,"BALB/c nude mice MCF7 xenograft, tumor","intravenous, 4 h",0.27 ± 0.1 %ID/g
N#C[C@@H]1CCCN1C(=O)CNC(=O)c1ccnc2ccc(OCCCN3CCN(C(=O)CCc4ccc5c(c4)CN4CCN6CC(=O)[O][68Ga-]([O]C(=O)C4)([O]5)[O]c4ccc(CCC(=O)N5CCN(CCCOc7ccc8nccc(C(=O)NCC(=O)N9CCC[C@H]9C#N)c8c7)CC5)cc4C6)CC3)cc12,,"BALB/c nude mice, U-87 MG tumour, gallbladder",120 min post-injection,42 ± 12.9 %ID/g
O=C(NCC1OC2CCC=CCCC2O1)c1ccc([18F])nc1 (centres unmarked),,"healthy female BALB/c nude mice, skin","intravenous, 7.4 MBq per mouse, 2 min",2.5 ± 0.4 %ID/g
CCCC[C@H](NC(=O)COCCOCCNC(=O)CN1CCN(CC(=O)O)CCN(CC(=O)O)CC1)C(=O)N[C@H]1CC(=O)NCCCC[C@@H](C(N)=O)NC(=O)[C@H](Cc2c[nH]c3ccccc23)NC(=O)[C@H](CCCNC(=N)N)NC(=O)[C@@H](Cc2ccccc2)NC(=O)[C@H](Cc2c[nH]cn2)NC1=O [fluorine-18 labelled],,"C57 mice B16-F10 melanoma, bone","intravenous, 0.37 MBq, 2 h",3.56 ± 1.34 %ID/g
Cc1cc(C)n(CCN(CCN)CCCCCCNC(=O)[C@@H](N)Cc2c[nH]c3ccccc23)n1.[99Tc+].[C-]#[O+].[C-]#[O+].[C-]#[O+],,"BALB/c nude mice, A549 xenograft, lung","intravenous, 4 h",0.33 ± 0.04 %IA/g
COc1ccc(Nc2nc(Nc3ccc(OCCOCCOCC[18F])cc3)ncc2Br)cc1,,"ICR mice, S180 tumour-bearing, liver","intravenous, 370 kBq, 30 min",3.74 ± 0.11 %ID/g

# For quick reference, copied from above:
Structure (SMILES),test,system,setting,tissue uptake
Cc1cc(C)n(CCN(CCN)CCCCCCNC(=O)[C@@H](N)Cc2c[nH]cn2)n1.[99Tc+].[C-]#[O+].[C-]#[O+].[C-]#[O+],,"BALB/c nude mice MCF7 xenograft, tumor","intravenous, 4 h",0.27 ± 0.1 %ID/g
